Experimental data pooled from the literature.
Numbered parts are unrelated; each lists some results of a single study. Values joined by “and” are separate records of one study, mostly repeats; a detail may differ.
UniProt P51955, sequence (whole entry, looked up): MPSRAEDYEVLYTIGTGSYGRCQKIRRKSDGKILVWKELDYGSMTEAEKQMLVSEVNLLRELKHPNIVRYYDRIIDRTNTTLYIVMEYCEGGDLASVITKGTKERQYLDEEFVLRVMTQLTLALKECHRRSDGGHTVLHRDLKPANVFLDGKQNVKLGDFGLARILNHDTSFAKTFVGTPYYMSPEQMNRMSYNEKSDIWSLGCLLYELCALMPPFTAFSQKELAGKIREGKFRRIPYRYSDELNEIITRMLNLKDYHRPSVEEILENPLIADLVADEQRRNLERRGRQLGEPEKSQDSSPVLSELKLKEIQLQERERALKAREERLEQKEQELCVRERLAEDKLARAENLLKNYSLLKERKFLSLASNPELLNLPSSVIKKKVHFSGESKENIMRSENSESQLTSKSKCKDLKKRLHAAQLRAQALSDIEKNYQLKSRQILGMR
UniProt P00519, sequence (whole entry, unmodified, looked up): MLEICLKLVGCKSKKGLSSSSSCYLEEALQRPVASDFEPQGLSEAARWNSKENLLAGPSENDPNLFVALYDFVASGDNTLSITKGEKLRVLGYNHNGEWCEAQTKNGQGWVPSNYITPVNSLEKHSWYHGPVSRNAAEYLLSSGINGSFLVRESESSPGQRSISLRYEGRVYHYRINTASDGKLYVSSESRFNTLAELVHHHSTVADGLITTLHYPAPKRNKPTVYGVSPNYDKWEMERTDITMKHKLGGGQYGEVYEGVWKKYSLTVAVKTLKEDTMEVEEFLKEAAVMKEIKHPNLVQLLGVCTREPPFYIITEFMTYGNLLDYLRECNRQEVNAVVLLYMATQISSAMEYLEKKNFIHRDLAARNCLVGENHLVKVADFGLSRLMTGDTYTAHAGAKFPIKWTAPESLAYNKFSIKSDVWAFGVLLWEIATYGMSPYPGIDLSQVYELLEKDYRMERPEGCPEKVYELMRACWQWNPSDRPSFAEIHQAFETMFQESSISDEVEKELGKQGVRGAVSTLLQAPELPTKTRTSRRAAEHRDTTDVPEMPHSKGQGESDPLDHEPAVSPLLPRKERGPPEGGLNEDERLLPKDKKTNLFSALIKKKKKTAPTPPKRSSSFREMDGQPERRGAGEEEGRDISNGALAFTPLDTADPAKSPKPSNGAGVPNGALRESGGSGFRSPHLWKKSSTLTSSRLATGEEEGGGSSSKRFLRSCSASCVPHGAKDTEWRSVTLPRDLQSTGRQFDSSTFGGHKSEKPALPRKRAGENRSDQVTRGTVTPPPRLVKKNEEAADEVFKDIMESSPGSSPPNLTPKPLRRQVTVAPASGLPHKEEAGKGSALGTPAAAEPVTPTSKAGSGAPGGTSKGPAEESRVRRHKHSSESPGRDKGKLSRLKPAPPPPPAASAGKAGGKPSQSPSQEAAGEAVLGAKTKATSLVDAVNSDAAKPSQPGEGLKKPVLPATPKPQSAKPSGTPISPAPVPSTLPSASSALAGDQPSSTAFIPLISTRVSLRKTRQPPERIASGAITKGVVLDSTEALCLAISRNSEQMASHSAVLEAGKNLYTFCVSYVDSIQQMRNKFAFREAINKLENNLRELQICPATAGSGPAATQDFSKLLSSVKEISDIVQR
UniProt Q8IWQ3, sequence (whole entry, looked up): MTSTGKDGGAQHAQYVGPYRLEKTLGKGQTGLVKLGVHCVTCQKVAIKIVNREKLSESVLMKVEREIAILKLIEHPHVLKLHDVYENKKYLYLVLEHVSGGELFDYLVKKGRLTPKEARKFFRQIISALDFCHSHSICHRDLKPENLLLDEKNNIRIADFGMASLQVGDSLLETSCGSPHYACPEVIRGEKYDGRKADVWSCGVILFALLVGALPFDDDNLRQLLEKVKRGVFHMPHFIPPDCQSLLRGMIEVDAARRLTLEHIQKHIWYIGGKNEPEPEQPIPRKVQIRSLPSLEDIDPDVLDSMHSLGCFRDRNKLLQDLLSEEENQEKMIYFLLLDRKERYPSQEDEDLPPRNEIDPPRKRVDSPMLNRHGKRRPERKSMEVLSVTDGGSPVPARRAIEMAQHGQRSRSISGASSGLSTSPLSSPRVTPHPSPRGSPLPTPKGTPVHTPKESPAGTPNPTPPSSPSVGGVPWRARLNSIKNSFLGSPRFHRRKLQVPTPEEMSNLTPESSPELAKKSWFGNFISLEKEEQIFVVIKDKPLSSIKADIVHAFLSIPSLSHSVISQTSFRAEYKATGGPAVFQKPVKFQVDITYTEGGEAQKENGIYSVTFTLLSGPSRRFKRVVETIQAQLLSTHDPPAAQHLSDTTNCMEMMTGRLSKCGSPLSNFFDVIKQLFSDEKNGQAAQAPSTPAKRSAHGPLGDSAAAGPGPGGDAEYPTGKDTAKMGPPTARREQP
UniProt Q8IU85, sequence (whole entry, looked up): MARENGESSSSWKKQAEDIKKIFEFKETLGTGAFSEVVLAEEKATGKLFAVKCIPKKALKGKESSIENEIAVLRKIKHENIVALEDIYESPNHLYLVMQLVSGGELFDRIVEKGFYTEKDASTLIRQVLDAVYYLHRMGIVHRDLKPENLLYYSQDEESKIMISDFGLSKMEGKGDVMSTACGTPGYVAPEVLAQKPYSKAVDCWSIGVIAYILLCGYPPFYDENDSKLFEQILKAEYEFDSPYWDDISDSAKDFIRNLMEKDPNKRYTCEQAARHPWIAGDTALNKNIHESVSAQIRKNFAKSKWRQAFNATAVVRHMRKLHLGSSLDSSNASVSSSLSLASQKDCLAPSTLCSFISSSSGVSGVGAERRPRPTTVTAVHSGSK
UniProt Q92772, sequence (whole entry, looked up): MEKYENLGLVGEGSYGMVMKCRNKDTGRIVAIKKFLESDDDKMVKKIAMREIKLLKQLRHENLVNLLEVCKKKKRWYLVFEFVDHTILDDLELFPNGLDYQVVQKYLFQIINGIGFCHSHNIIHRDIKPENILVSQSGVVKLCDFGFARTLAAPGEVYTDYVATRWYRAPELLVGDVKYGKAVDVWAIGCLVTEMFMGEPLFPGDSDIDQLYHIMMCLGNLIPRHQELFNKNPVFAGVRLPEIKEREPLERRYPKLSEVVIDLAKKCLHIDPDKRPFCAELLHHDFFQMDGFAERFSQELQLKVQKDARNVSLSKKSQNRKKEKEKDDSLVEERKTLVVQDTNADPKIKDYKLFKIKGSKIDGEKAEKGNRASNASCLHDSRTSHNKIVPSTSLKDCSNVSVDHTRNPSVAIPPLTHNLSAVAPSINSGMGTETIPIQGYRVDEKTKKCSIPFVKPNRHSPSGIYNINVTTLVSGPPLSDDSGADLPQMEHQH
UniProt Q12852, sequence (whole entry, looked up): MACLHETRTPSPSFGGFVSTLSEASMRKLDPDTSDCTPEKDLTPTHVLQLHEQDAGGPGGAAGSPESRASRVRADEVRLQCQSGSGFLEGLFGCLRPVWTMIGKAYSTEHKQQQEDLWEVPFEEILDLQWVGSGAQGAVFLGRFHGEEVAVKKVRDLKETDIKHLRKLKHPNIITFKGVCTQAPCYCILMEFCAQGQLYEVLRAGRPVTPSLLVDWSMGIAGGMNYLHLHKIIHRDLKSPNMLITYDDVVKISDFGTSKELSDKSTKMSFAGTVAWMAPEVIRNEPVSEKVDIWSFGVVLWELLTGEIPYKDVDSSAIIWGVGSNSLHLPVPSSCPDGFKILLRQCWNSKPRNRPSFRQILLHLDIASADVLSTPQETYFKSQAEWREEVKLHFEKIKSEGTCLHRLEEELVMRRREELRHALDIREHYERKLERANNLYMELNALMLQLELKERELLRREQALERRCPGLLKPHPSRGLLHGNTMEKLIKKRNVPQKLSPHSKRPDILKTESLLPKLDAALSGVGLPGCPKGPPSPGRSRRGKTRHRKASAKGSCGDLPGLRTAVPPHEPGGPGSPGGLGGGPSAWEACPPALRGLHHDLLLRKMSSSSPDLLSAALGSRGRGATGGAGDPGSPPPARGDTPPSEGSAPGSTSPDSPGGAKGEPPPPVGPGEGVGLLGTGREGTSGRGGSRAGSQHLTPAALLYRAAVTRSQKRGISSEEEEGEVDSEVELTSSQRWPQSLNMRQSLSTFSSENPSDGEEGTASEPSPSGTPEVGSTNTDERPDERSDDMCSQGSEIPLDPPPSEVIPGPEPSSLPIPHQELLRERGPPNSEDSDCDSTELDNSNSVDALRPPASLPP

Block 1
Target: Calcium/calmodulin-dependent protein kinase type II subunit alpha (CAMK2A, Homo sapiens, UniProt Q9UQM7)
UniProt Q9UQM7, sequence (whole entry, looked up): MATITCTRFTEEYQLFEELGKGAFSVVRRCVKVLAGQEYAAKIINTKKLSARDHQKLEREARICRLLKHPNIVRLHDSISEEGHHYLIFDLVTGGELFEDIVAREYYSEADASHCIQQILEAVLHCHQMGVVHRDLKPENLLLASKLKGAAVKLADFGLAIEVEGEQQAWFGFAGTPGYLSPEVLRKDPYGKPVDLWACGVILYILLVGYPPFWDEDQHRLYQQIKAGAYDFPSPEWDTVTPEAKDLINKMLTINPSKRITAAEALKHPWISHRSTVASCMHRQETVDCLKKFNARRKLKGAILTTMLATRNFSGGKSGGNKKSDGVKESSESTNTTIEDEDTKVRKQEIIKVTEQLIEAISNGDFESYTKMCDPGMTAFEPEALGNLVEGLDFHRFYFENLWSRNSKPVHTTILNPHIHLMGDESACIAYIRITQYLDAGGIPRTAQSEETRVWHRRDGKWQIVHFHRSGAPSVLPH
Observed: enzyme activity
Mode: inhibitor
Tested at: 10 µM
Quantity: inhibition
CC(C)(O)[C@H]1CC[C@@](C)([C@H]2[C@@H](O)C[C@@]3(C)[C@@H]4C[C@H](O)[C@H]5C(C)(C)[C@@H](O)CC[C@@]56C[C@@]46CC[C@]23C)O1: -18%
C[C@@H]1CC[C@@]2(OC1)O[C@H]1C[C@H]3[C@@H]4CC=C5C[C@@H](O)C[C@@H](O)[C@]5(C)[C@H]4CC[C@]3(C)[C@H]1[C@@H]2C: -3%
COC(=O)C(O)CC(C)C (stereo not drawn): 8%
C=C1C(=O)O[C@H]2[C@H]1CC/C(C)=C/CC[C@@]1(C)O[C@@H]21: -1%
COc1ccc2cc1Oc1ccc(cc1)C[C@H]1c3cc(c(OC)cc3CCN1C)Oc1c(O)c(OC)cc3c1[C@H](C2)N(C)CC3: -11%
C[C@]12C=CC(=O)C=C1CC[C@@H]1[C@@H]2[C@@H](O)C[C@@]2(C)[C@H]1CC[C@]2(O)C(=O)COC(=O)CCC(=O)O: -8%
CC(C)(C#N)c1cc(Cn2cncn2)cc(C(C)(C)C#N)c1: 4%
COc1cc(O)cc(CCc2cccc(O)c2)c1: 4%

Block 2
Compound: CO[C@@H]1[C@@H](OC(N)=O)[C@@H](O)[C@H](Oc2ccc3c(O)c(NC(=O)c4ccc(O)c(CC=C(C)C)c4)c(=O)oc3c2C)OC1(C)C
Method: CellTiter-Glo
Quantity: viability
RPE-1 p53-/- BRCA1-/-; 100 µM, 6 d: 45.7% and 53.1%
RPE-1 wild type; 50 µM, 6 days; reference: untreated: 103% and 102%
RPE-1 BRCA1-/- PARPi-resistant R3; 50 µM, 6 days: 73% and 76.7%
RPE-1 BRCA1-/- PARPi-resistant R4; 25 µM, 6 days: 65.5% and 76.4% and 95.2%
MDA-MB-436 (BRCA1-mutant); 50 µM, 6 days; reference: untreated: 28.5% and 38.9% and 41.6% and 27.8% and 35.6%
MDA-MB-436 PARPi-resistant; 6.3 µM, 6 days; reference: untreated: 121% and 101% and 119% and 106% and 112%
RPE-1 BRCA1-/- PARPi-resistant R4; 50 µM, 6 d: 81.5%
UWB1.289 parental; 25 µM, 6 days; reference: untreated: 73.5%

Block 3
Target: Eukaryotic initiation factor 4A-III (Homo sapiens, UniProt P38919)
UniProt P38919, sequence (whole entry, looked up): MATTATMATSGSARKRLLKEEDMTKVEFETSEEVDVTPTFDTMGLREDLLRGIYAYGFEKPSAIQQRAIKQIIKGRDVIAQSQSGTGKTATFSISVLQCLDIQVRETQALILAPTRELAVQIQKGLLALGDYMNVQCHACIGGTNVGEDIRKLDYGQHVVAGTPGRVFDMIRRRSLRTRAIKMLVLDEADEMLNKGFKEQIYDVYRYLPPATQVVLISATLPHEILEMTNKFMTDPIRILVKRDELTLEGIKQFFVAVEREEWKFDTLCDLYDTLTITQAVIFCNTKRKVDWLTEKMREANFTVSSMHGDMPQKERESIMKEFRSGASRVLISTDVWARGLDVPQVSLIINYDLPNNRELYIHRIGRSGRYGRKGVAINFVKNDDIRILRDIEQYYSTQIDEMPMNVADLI
Observed: RNA clamping
Method: fluorescence polarization
Tested at: concentration not given
With: FAM-labelled poly r(AG)8 RNA
Quantity: fluorescence polarization change
COc1ccc([C@@]23Oc4cc(OC)cc(OC)c4[C@@]24NC(C)=N[C@@]4(O)[C@H](C(C)=O)[C@H]3c2ccccc2)cc1: 25.5 mP
COc1ccc([C@]23Oc4cc(OC)cc(OC)c4[C@](O)([C@H](C(=O)NCCCC(OC)OC)[C@H]2c2ccccc2)[C@@H]3O)cc1: -9.7 mP
COc1cc(F)cc2c1[C@]1(O)[C@H](O)[C@@H](C#N)[C@H](c3ccccc3)[C@]1(c1ccc(Br)cc1)O2: 3.5 mP
COc1cc(OC)c2c(c1)O[C@@]1(c3ccc(OC)c(O)c3)[C@H](c3ccccc3)[C@@H](C(=O)c3ccco3)[C@@H](O)[C@@]21O: 3.1 mP
C#CCOc1ccc(-c2nc(OCC#C)c3c(n2)[C@@]2(O)c4c(OC)cc(OC)cc4O[C@@]2(c2ccc(OC)cc2)[C@@H]3c2ccccc2)cc1: -0.1 mP
COc1cc(OC)c2c(c1)O[C@@]1(c3ccc(C#N)cc3)[C@H](c3ccccc3)[C@@H](CN(C)C)[C@@H](O)[C@@]21O: 46.4 mP
COc1ccc([C@@]23Oc4cc(OC)cc(OC)c4[C@]2(O)c2nc(C)[nH]c(=O)c2[C@H]3c2ccccc2)cc1: 51.7 mP
COC(=O)[C@@H]1[C@@H](c2ccccc2)[C@]2(c3ccc(OC)cc3)Oc3cc(OC)cc(OC)c3[C@@]23NC(C2CCN(C(=O)OC(C)(C)C)CC2)=N[C@@]13O: 13.6 mP

Block 4
Structure (SMILES): CO[C@H]1CC[C@H](CNc2ccc(S(=O)(=O)NC(=O)c3ccc(N4CCN(CC5=C(c6ccc(Cl)cc6)CC(C)(C)CC5)CC4)cc3Oc3cnc4[nH]ccc4c3)cc2[N+](=O)[O-])CC1
Method: competition with immobilised ligand
Tested at: 1 µM
Quantity: remaining binding
GRK1 (Homo sapiens, UniProt Q15835); cell-free assay: 72%
NEK2 (Homo sapiens, UniProt P51955); cell-free assay: 100%
CDKL2 (Homo sapiens, UniProt Q92772); cell-free assay: 100%
PRKCI (Homo sapiens, UniProt P41743); cell-free assay: 79%
CAMK1D (Homo sapiens, UniProt Q8IU85); cell-free assay: 80%
ULK2 (Homo sapiens, UniProt Q8IYT8); cell-free assay: 100%
IKBKB (Homo sapiens, UniProt O14920); cell-free assay: 100%
PIP5K1C (Homo sapiens, UniProt O60331); cell-free assay: 100%
DCLK1 (Homo sapiens, UniProt O15075); cell-free assay: 100%
FLT3 (Homo sapiens, UniProt P36888, F691L/ITD); cell-free assay: 88%
PIK3CA (Homo sapiens, UniProt P42336, I800L); cell-free assay: 98%
Tyrosine-protein kinase ABL1, non-phosphorylated (ABL1, Homo sapiens, UniProt P00519, F317I); binding: 100%
MAP3K12 (Homo sapiens, UniProt Q12852); cell-free assay: 100%
PDGFRA (Homo sapiens, UniProt P16234); cell-free assay: 100%
BRSK2 (Homo sapiens, UniProt Q8IWQ3); cell-free assay: 78%

Excerpt of the above (block 4):
Tyrosine-protein kinase ABL1, non-phosphorylated (ABL1, Homo sapiens, UniProt P00519, F317I); binding: 100%
FLT3 (Homo sapiens, UniProt P36888, F691L/ITD); cell-free assay: 88%
CDKL2 (Homo sapiens, UniProt Q92772); cell-free assay: 100%
PIP5K1C (Homo sapiens, UniProt O60331); cell-free assay: 100%
BRSK2 (Homo sapiens, UniProt Q8IWQ3); cell-free assay: 78%
PIK3CA (Homo sapiens, UniProt P42336, I800L); cell-free assay: 98%
PRKCI (Homo sapiens, UniProt P41743); cell-free assay: 79%
